Measurements from different studies.
Protocols differ between the studies behind these lines. Several values in a cell are separate wells, animals, samples, runs or records. ± marks the error that the study gave.
TDP1: Tyrosyl-DNA phosphodiesterase 1 (TDP1, Homo sapiens, UniProt Q9NUW8)
Sequence of UniProt Q9NUW8 (whole entry, looked up): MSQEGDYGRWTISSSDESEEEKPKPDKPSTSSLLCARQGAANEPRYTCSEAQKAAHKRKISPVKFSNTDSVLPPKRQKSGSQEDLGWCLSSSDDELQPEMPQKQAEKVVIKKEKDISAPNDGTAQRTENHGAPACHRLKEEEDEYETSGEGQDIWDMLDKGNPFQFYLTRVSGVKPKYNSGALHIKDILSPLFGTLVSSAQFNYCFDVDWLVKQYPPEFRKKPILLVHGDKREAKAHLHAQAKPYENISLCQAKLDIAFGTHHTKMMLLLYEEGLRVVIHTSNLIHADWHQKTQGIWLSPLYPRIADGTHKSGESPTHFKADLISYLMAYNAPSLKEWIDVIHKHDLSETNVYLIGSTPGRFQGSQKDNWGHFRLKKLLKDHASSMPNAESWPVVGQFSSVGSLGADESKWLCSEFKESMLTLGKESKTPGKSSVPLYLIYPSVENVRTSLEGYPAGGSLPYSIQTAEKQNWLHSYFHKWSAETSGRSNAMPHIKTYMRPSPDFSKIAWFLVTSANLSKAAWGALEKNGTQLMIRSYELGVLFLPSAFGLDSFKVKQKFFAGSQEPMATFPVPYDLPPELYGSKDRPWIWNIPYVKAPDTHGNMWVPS

For `COc1ccc2ncc(F)c(C[C@H](O)[C@H]3OC[C@H](NCc4ccc(C)cc4)CO3)c2n1`, the IC50 was 67.9 µg/mL (HepG2; cytotoxicity; 24 h).
`Cc1cc(O)c(O)c(=O)c(O)c1` has a CC50 of 10.1 µM (HepDES19; cell growth or viability, MTS; 72 h).
`COC1C=COC2(C)Oc3c(C)c(O)c4c(c3C2=O)C2=NC3(CCN(CC(C)C)CC3)NC2=C(NC(=O)C(C)=CC=CC(C)C(O)C(C)C(O)C(C)C(OC(=O)c2cncnc2)C1C)C4=O` (stereo not drawn) has an intracellular/extracellular ratio of 25 (THP-1 derived macrophages; baseline: intracellular over extracellular).
`O=S(=O)(NCc1ccncc1)c1ccc(C2CCCCC2)cc1` gave a TC50 of 0.177 µM (human iPSC-derived microglia-like cells; cytotoxicity, propidium iodide uptake).
`COC1C=COC2(C)Oc3c(C)c(O)c4c(c3C2=O)C2=NC3(CCN(CC(C)C)CC3)NC2=C(NC(=O)C(C)=CC=CC(C)C(O)C(C)C(O)C(C)C(OC(=O)Nc2cccnn2)C1C)C4=O` (stereo not drawn) gave an intracellular/extracellular ratio of 23.1 (THP-1 derived macrophages; 30 min; baseline: intracellular over extracellular).
`COc1cc(C)c(C(=O)c2cccs2)cc(O)c1=O` gave a CC50 of 100 µM (HepDES19; cell growth or viability, MTS; 72 h).
For `COc1ccccc1NC(=O)OC1C(C)C(OC)C=COC2(C)Oc3c(C)c(O)c4c(c3C2=O)C2=NC3(CCN(CC(C)C)CC3)NC2=C(NC(=O)C(C)=CC=CC(C)C(O)C(C)C(O)C1C)C4=O` (stereo not drawn), the intracellular/extracellular ratio was 12.9 (THP-1 derived macrophages; 30 min).
For `Cc1cc(O)c(=O)c(O)cc1-c1ccc([N+](=O)[O-])cc1`, the CC50 was 79 µM (HepDES19; cell growth or viability, MTS; 72 h).
For `Nc1nc2c(ncn2COCCO)c(=O)[nH]1`, the CC50 was 256 µg/mL (MDBK; cell growth or viability, MTT; 72 h).
`N=C(N)NCCC[C@@H]1NC(=O)[C@H](CCCNC(=N)N)NC(=O)[C@@H](CCCNC(=N)N)NC(=O)[C@@H](CCCNC(=N)N)NC(=O)[C@@H](Cc2ccc3ccccc3c2)NC(=O)[C@H](Cc2c[nH]c3ccccc23)NC(=O)[C@@H](Cc2ccc3ccccc3c2)NC1=O` has an HC50 of 220 µg/mL (human red blood cells; haemolysis; 2 h, 37 °C).
`CCCCCCCCCCCC(=O)Oc1c(C)c(OC)c2c(c1C)OC(=O)[C@@H](CCCCCCCCCC)[C@]2(O)/C=C/c1ccccc1` (relative stereo) gave an IC50 of greater than 50 µM (normal human liver cell line; cytotoxicity, SRB; 72 h).
With `COc1cc(N2CCN(C(=O)C3CCCN3)CC2)ccc1Nc1ncc(Cl)c(Nc2ccccc2P(C)(C)=O)n1` (stereo not drawn) the viability was 98% and 92% (NCI-H3122; cell growth or viability, CCK-8; 2.5 nM, 48 h).
`Cl.NCc1ccc2c(c1)CN(C1CCC(=O)NC1=O)C2=O` (stereo not drawn) has a minimum viability of 87 ± 5.39% (SNU-886; CellTiter-Glo; concentration not given, 72 h).
With `N=C(N)NCCC[C@@H]1NC(=O)[C@H](CCCNC(=N)N)NC(=O)[C@@H](CCCNC(=N)N)NC(=O)[C@@H](CCCNC(=N)N)NC(=O)[C@H](C(c2ccccc2)c2ccccc2)NC(=O)[C@H](Cc2c[nH]c3ccccc23)NC(=O)[C@H](C(c2ccccc2)c2ccccc2)NC1=O` the HC50 was 260 µg/mL (human red blood cells; haemolysis; 2 h, 37 °C).
`CCCC(=O)Oc1c(C)c(OC)c2c(c1C)OC(=O)[C@@H](CC)[C@]2(O)/C=C/c1ccccc1` (racemic) has an IC50 of greater than 50 µM (normal human liver cell line; cytotoxicity, SRB; 72 h).
With `CN1CCCNC(=O)c2cccc(c2)C(=O)NCCCN(C)CCCNc2cccc3c2C(=O)c2cccc(c2C3=O)NCCC1` the viability was 27.3% (Ca9-22; cell growth or viability, CCK-8; 1.5 µM, 48 h).
The IC50 of `COc1ccc2nccc(CC[C@H]3OC[C@H](NC(=O)c4ccc5c(n4)NC(=O)CS5)CO3)c2c1` is reported as greater than 128 µg/mL (HepG2; cytotoxicity; 24 h).
`COc1c(C)c(OCc2ccccc2)c(C)c(OCc2ccccc2)c1C(=O)/C=C/c1ccccc1` gave an IC50 of greater than 50 µM (normal human liver cell line; cytotoxicity, SRB; 72 h).
`CC1(F)CN(C(=O)Cn2c(=O)c(C(=O)NCc3ccc(Cl)cc3)cc3nc(N4CCN(CCN)C4=O)cnc32)C1` gave a CC50 of greater than 40 µM (MRC-5; cell viability, CCK-8).
With `Cc1ccc(-n2cc(CSc3nc4ccccc4n3Cc3cn(-c4ccc(C)cc4)nn3)nn2)cc1` the viability was 86.2% (HEK293; MTT; 7.81 ppm).
`COC1C=COC2(C)Oc3c(C)c(O)c4c(c3C2=O)C2=NC3(CCN(CC(C)C)CC3)NC2=C(NC(=O)C(C)=CC=CC(C)C(O)C(C)C(O)C(C)C(OC(=O)Nc2cscn2)C1C)C4=O` (stereo not drawn) gave an intracellular/extracellular ratio of 92.5 (THP-1 derived macrophages; 30 min; baseline: intracellular over extracellular).
The IC50 of `COc1ccc2ncc(F)c(CC[C@H]3OC[C@H](NCc4ccc(Cl)c(Cl)c4)CO3)c2n1` is reported as 9.35 µg/mL (HepG2; cytotoxicity; 24 h).
With `C=CCOc1c(C)c(OC)c(C(=O)/C=C/c2ccccc2)c(OCC=C)c1C` the IC50 was greater than 50 µM (normal human liver cell line; cytotoxicity, SRB; 72 h).
`O=CCNCCOn1c(=O)n(OCCNCCO)c(=O)n(OCCNCCOn2c(=O)n(OCCNCCO)c(=O)n(OCCNCCO)c2=O)c1=O` gave a viability of 8.8% (HUVEC; cell growth or viability, MTT; 200 µg/mL, 72 h).
For `COC1C=COC2(C)Oc3c(C)c(O)c4c(c3C2=O)C2=NC3(CCN(CC(C)C)CC3)NC2=C(NC(=O)C(C)=CC=CC(C)C(O)C(C)C(O)C(C)C(OC(=O)c2cccnc2)C1C)C4=O` (stereo not drawn), the intracellular/extracellular ratio was 44 (THP-1 derived macrophages; baseline: intracellular over extracellular).
With `N=C(N)NCCC[C@@H]1NC(=O)[C@H](CCCNC(=N)N)NC(=O)[C@H](CCCNC(=N)N)NC(=O)[C@H](Cc2ccc3ccccc3c2)NC(=O)[C@H](Cc2ccc3ccccc3c2)NC(=O)[C@H](Cc2c[nH]c3ccccc23)NC(=O)[C@H](CCCNC(=N)N)NC1=O` the HC50 was 150 µg/mL (human red blood cells; haemolysis; 2 h, 37 °C).
The IC50 of `CCCCCC(=O)Oc1c(C)c(OC)c2c(/C=C/c3ccccc3)c(CCCC)c(=O)oc2c1C` is reported as greater than 50 µM (normal human liver cell line; cytotoxicity, SRB; 72 h).
For `CC(=O)NC(CCc1ccc(Cl)c(Cl)c1)c1ccc(O)c(=O)cc1` (stereo not drawn), the CC50 was 4.2 µM (HepDES19; cell growth or viability, MTS; 72 h).
The inhibition of `O=C(O)c1ccc(Nc2c(-c3ccccc3)nc3ccc(CON=Cc4cc5c(cc4[N+](=O)[O-])OCCO5)cn23)cc1` (mixture of isomers) is reported as -1.1% (TDP1; enzyme activity, inhibitor; 100 µM, unpurified compound).
For `CC1(C)CC[C@@]2(CO)C(=C3C=C[C@@H]4[C@@]5(C)CC[C@H](O)[C@@](C)(CO)[C@@H]5CC[C@@]4(C)[C@]3(C)C[C@@H]2O)C1`, the viability was 91% and 106% and 84% and 83% and 90% and 97% (LO2; 50 µM, 24 h).
`O=C(Oc1cccccc1=O)c1cccc(Cl)c1` gave a CC50 of 96.5 µM (HepDES19; cell growth or viability, MTS; 72 h).
`COc1cccc2c1cc1c3c(cc4c(c32)OCO4)[C@@H]2c3c4c5c(cc6c(c5c5cccc(OC)c35)OCO6)CCN4[C@@H]2N1C` (racemic) gave an inhibition of less than 50% (MRC-5; cytotoxicity, MTT; 50 µg/mL, 48 h).
`N=C(N)NCCC[C@@H]1NC(=O)[C@H](CCCNC(=N)N)NC(=O)[C@H](CCCNC(=N)N)NC(=O)[C@@H](CCCNC(=N)N)NC(=O)[C@H](Cc2ccc3ccccc3c2)NC(=O)[C@H](Cc2ccc3ccccc3c2)NC(=O)[C@H](Cc2ccc3ccccc3c2)NC1=O` gave an HC50 of 170 µg/mL (human red blood cells; haemolysis; 2 h, 37 °C).
With `COC(=O)c1c2c(cc(O)c(=O)c1O)COC2=O` the CC50 was 88.2 µM (HepDES19; cell growth or viability, MTS; 72 h).
The intracellular/extracellular ratio of `COC1C=COC2(C)Oc3c(C)c(O)c4c(c3C2=O)C2=NC3(CCN(CC(C)C)CC3)NC2=C(NC(=O)C(C)=CC=CC(C)C(O)C(C)C(O)C(C)C(OC(=O)Nc2cnccn2)C1C)C4=O` (stereo not drawn) is reported as 31 (THP-1 derived macrophages; baseline: intracellular over extracellular).
The CC50 of `O=c1cccccc1Cl` is reported as 57 µM (HepDES19; cell growth or viability, MTS; 72 h).
`O=C(O)c1ccc(Nc2c(-c3ccccc3)nc3ccc(CON=CC=Cc4cn(Cc5ccccc5)nn4)cn23)cc1` (mixture of isomers) has an inhibition of 5.2% (TDP1; enzyme activity, inhibitor; 100 µM, unpurified compound).
`O=c1c(O)ccc(-c2ccc(-c3ccccc3)cc2)cc1O` has a CC50 of 20.5 µM (HepDES19; cell growth or viability, MTS; 72 h).
`c1cc2nc(c1)-c1cccc(n1)CCCc1ccc(cc1)OCCCCCCOc1ccc(cc1)CCC2` gave a viability of 96.3% (HepG2; cell growth or viability, MTT; 12.5 µM, 24 h).

A few entries again:
`Cc1cc(O)c(O)c(=O)c(O)c1` has a CC50 of 10.1 µM (HepDES19; cell growth or viability, MTS; 72 h).
`COC1C=COC2(C)Oc3c(C)c(O)c4c(c3C2=O)C2=NC3(CCN(CC(C)C)CC3)NC2=C(NC(=O)C(C)=CC=CC(C)C(O)C(C)C(O)C(C)C(OC(=O)c2cncnc2)C1C)C4=O` (stereo not drawn) has an intracellular/extracellular ratio of 25 (THP-1 derived macrophages; baseline: intracellular over extracellular).
`O=S(=O)(NCc1ccncc1)c1ccc(C2CCCCC2)cc1` gave a TC50 of 0.177 µM (human iPSC-derived microglia-like cells; cytotoxicity, propidium iodide uptake).
